Published values gathered from unrelated publications.
Lines come from different studies, so protocols differ.
T1: RNA aptamer, 2'-F pyrimidines; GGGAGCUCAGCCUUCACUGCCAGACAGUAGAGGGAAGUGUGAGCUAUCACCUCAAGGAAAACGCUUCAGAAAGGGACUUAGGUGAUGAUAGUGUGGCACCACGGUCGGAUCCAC
T2: RNA aptamer; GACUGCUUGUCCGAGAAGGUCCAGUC
T3: RNA aptamer truncated FMN aptamer; GGUACUUCGGGAAG
T4: RNA aptamer A9G; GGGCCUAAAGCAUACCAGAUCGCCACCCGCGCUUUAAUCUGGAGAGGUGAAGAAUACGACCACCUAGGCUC
T5: RNA aptamer, 2'-F pyrimidines; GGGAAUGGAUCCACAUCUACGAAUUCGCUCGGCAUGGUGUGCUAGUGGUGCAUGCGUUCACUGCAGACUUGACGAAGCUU
T6: RNA aptamer, dimerized, 6-nt linker; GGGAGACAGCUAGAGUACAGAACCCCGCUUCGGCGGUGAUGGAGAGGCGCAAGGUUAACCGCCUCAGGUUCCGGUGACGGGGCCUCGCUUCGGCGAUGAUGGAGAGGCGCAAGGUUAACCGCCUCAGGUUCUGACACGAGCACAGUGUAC
T7: RNA aptamer A50U; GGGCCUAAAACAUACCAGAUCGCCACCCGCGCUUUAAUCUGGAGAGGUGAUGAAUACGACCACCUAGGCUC
T8: RNA aptamer; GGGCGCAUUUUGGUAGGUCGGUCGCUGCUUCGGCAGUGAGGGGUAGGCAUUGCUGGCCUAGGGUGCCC

| target | technique | pH | temperature | setting | Kd [nM] | Structure (SMILES) |
| --- | --- | --- | --- | --- | --- | --- |
| T1, RNA aptamer, 2'-F pyrimidines | SPR |  |  | apparent | 3320 | CNC1C(OC2OC(CO)C(N)C(O)C2O)OC2CC(N)C(OC3C(N)CC(NC(=O)CCOCCOCCOCCOCCOCCOCCOCCOCCOCCOCCOCCOCCNC(=O)CCCC[C@@H]4SC[C@@H]5NC(=O)N[C@@H]54)C(O)C3O)OC2C1O (stereo partly drawn) |
| T2, RNA aptamer | ITC |  |  | NaCl 200 mM | 9.5 | NC[C@@H]1O[C@H](O[C@H]2[C@@H](O)[C@H](O[C@@H]3[C@@H](O)[C@H](N)C[C@H](N)[C@H]3O[C@H]3O[C@H](CN)[C@@H](O)[C@H](O)[C@H]3N)O[C@@H]2CO)[C@H](N)[C@@H](O)[C@@H]1O |
| T3, RNA aptamer truncated FMN aptamer | fluorescence quenching |  |  |  | 12000 | Cc1cc2nc3c(=O)[nH]c(=O)nc-3n(C[C@H](O)[C@H](O)[C@H](O)COP(=O)(O)OP(=O)(O)OC[C@H]3O[C@@H](n4cnc5c(N)ncnc54)[C@H](O)[C@@H]3O)c2cc1C |
| T4, RNA aptamer A9G | fluorescence titration | pH 7.5 | 25 °C | MgCl2 10 mM | 2640 | CN(C)C1C(O)=C(C#N)C(=O)C2(O)C(O)=C3C(=O)c4c(O)cccc4C(C)(O)C3CC12 (stereo not drawn) |
| T5, RNA aptamer, 2'-F pyrimidines | SPR |  |  | apparent | 74.1 | CN[C@@H]1[C@H](O[C@H]2[C@H](O[C@H]3[C@H](O)[C@@H](O)[C@H](N=C(N)N)[C@@H](O)[C@@H]3N=C(N)N)O[C@@H](C)[C@]2(O)C=NNC(=O)CCOCCOCCOCCOCCNC(=O)CCCC[C@@H]2SC[C@@H]3NC(=O)N[C@@H]32)O[C@@H](CO)[C@H](O)[C@H]1O |
| T6, RNA aptamer, dimerized, 6-nt linker | fluorescence titration | pH 7.5 |  | KCl 100 mM | 73 | CCN(CC)c1ccc2c(-c3ccc(S(=O)(=O)NCCC(=O)NCCCC[C@H](NC(=O)CCNS(=O)(=O)c4ccc(-c5c6ccc(=[N+](CC)CC)cc-6oc6cc(N(CC)CC)ccc56)c(S(=O)(=O)[O-])c4)C(=O)NCc4cn(CCOCCOCCOCCNC(=O)CCCC[C@@H]5SC[C@@H]6NC(=O)N[C@@H]65)nn4)cc3S(=O)(=O)[O-])c3ccc(=[N+](CC)CC)cc-3oc2c1 |
| T7, RNA aptamer A50U | fluorescence titration | pH 7.5 | 25 °C | MgCl2 10 mM | 600 | CN(C)[C@@H]1C(=O)C(C(N)=O)=C(O)[C@@]2(O)C(=O)C3=C(O)c4c(O)cccc4[C@@](C)(O)[C@H]3[C@H](O)[C@@H]12 |
| T3, RNA aptamer truncated FMN aptamer | fluorescence quenching |  |  |  | 12500 | Cc1cc2nc3c(=O)[nH]c(=O)nc-3n(C[C@H](O)[C@H](O)[C@H](O)CO)c2cc1C |
| T8, RNA aptamer | ITC | pH 6.5 | 20 °C | KCl 50 mM | 70 | Nc1nc2c(ncn2[C@@H]2O[C@H](COP(=O)(O)OP(=O)(O)OP(=O)(O)O)[C@@H](O)[C@H]2O)c(=O)[nH]1 |

A few entries again:
| target | technique | pH | temperature | setting | Kd [nM] | Structure (SMILES) |
| --- | --- | --- | --- | --- | --- | --- |
| T2, RNA aptamer | ITC |  |  | NaCl 200 mM | 9.5 | NC[C@@H]1O[C@H](O[C@H]2[C@@H](O)[C@H](O[C@@H]3[C@@H](O)[C@H](N)C[C@H](N)[C@H]3O[C@H]3O[C@H](CN)[C@@H](O)[C@H](O)[C@H]3N)O[C@@H]2CO)[C@H](N)[C@@H](O)[C@@H]1O |
